Experimental data from different studies.
Parts stem from different laboratories: compare values within a part only. Changes are numbered by the printed parent chain.

Block 1
Target: Sal-like protein 4, full length isoform A (SALL4, Homo sapiens, UniProt Q9UJQ4, residues 1-1053)
Chain of UniProt Q9UJQ4 (whole entry, looked up): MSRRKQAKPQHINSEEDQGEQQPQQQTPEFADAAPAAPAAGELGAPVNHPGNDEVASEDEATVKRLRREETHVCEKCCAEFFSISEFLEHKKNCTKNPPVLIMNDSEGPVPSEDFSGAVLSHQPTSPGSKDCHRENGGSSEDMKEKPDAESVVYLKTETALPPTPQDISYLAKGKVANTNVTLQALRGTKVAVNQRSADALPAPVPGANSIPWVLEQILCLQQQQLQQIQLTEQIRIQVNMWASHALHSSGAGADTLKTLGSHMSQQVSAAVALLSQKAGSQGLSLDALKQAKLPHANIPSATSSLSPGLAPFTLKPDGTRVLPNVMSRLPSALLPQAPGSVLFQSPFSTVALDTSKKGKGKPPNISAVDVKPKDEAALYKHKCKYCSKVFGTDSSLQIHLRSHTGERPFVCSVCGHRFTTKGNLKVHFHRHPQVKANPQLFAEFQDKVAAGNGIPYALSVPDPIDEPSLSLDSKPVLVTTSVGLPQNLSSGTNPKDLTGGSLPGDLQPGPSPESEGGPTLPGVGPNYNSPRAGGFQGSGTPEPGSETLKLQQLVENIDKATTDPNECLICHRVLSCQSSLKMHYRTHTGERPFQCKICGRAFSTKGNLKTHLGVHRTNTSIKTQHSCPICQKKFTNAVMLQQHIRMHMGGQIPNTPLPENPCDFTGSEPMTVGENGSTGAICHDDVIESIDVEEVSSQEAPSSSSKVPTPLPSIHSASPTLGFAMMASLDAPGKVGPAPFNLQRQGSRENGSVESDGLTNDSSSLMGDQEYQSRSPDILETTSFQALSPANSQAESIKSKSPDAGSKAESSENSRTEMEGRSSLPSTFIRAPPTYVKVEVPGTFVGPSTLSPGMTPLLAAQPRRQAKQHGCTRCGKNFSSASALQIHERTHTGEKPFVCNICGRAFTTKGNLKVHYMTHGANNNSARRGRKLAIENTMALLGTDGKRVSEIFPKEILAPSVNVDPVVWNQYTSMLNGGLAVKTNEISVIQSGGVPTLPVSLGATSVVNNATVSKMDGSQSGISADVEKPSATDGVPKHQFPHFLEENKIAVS
Method: universal PBM
Form: double-stranded DNA, one strand shown
Sample: in vitro
Tested at: 600 nM
Notes: 8-mer, flanks averaged, mean of replicates
Reading: higher = stronger binding
Oligonucleotide | E-score
GATACAGC | 0.0858
GCGTCATA | 0.192
ATCCCCCA | -0.137
GCATCTCC | -0.222
CAAGGAAG | -0.0931
AGCGATAT | 0.263
CCCCTAGC | -0.289
ATACCGTC | 0.0305
AACTTCCA | -0.034
AATCGTCA | 0.147
AACGCTTG | -0.0813
GGTTGCAC | -0.262
CAACCCTA | -0.172
ATCATAAA | 0.407
ATGTAAGC | 0.0714
AACCCCGC | -0.231
CCTGTCAA | -0.000515
AAGCGGTA | -0.00147
CGCATTCC | -0.248
ACCGCCAG | -0.276
GTCTCCAA | 0.102
CGATTTCA | 0.134
CGTTTCCA | 0.124
CAAAGGCA | -0.0716
ATTAGGGA | 0.157

Block 2
Target: CCNE2, cyclin fold, Cln2 fusion (human)
Method: yeast growth competition, sequencing
Sample: yeast
Notes: strong parent motif
Baseline: not given
Reading: higher = stronger binding
Starting sequence: CDKN1B docking peptide (human); PSACRNLFGPVDH
Change | normalised enrichment score
P1R | 1.7
G9N | 0.684
C4M | 0.195
A3L | 0.749
P10S | 1.64
A3D | -0.0549
R5G | -0.388
F8D | -0.205
H13E | 0.828
A3T | 0.998
F8G | -0.138
N6K | 2.33
A3S | 0.262
V11S | 1.64
D12T | 1.52
S2W | 0.537
A3Q | 0.561
P10F | 1.24
L7G | 0.36
C4H | 0.136
L7D | 0.14
C4E | 0.0781
P1H | 1.88

Block 3
Target: RING finger protein unkempt homolog, zinc fingers 1-6, SBP tag (UNK, Homo sapiens, UniProt Q9C0B0, residues 30-357)
Chain of UniProt Q9C0B0 (30-357, looked up): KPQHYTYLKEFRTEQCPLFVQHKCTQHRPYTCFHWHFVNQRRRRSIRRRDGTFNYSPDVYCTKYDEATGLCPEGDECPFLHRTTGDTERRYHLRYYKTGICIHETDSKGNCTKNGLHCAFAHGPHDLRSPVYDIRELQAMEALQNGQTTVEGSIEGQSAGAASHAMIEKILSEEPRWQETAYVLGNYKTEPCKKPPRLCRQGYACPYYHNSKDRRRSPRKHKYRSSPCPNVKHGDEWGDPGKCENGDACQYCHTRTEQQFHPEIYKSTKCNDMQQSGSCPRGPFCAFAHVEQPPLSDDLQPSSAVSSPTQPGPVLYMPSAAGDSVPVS
Method: RNA Bind-n-Seq
Form: RNA
Sample: in vitro
Tested at: 100 nM
Notes: RNA with constant flanks, vertebrate orthologous sites, ends assumed
Baseline: input RNA pool
Reading: higher = stronger binding
Constant ends, left off below: GGGAGUUCUACAGUCCGACGAUC … CAACAGAGGAUUGAGCAUCA
Oligonucleotide | bound/input enrichment [ratio]
AUCCCUCAGUGACAGUAUGCCAUCUGUAGCUGACUCCCACUCUAGUCAUUUUUCUGAAUUUAGUUGUUCUGACCUAGAAAGCAUGAAAACUUCUUGUAGCCAUGGUUCCAGUGAUUAUCA | 4.24
UGAAUAGUAGUAUAGAAGAAACAGUUGUCUUCCUUUAUCUUUUAUCCUCUAGCUAAUAGCUAGUCUACUUUUUAAAAUUUCACACUUUACUGCUCUUUGAAUUGAUAAUUCCAAUUCAAU | 0.613
CAAGCUCAUUAAGAAAAGCAUUUUUUAAACUGUAUUUAUUUAUGUUUGUAAACUUGUACAUAGUAACAACCCUGCAAAUGUUCUGUUACUCAAUUUUACAUCUUUUAGGUUCUUUUAGGG | 1
UGGGUUAUUCCUAUUAUUAUCAAGUAGCUGGAAUUGUGAAGGUUGGAGUAGUUAGAUCUUUAGCUUUUAUUCCUUUUUUUUGUAUUACUAUCCAUGUGUAUAAAUUAUUGAUCAUGUUGC | 2.09
GGGAUGGCGGGGUGGGAGGGAUACGUGGCCGUUUUGAUGUUAUUGGCAUUAUUAAGUGUUCCAGGGAUUGUCUUGUCUUGAAUUUUUCCCAUUUUGUUGUUUUCCCCUUUAAUUGGAUGC | 0.515
GUUGUGACCCAUUUAACAUUCACAAAAAGCUUGCAAAGAAAAAUUUGCAUGCUAUCGAUUUAGAUGAUGCAACCUUUCUAAGUGCCAAGUUUGGAAGACAGCUUGUACCUGGUUGGAAGC | 0.523
GAAAAUGGCUUCUGCUCCAUUAAAAAAUAAAAAUUGUCCACUAAAUAUAAAACUCCUUAAUAGGUAUUUUUGAAAUUAAAAUCUUUAAAUUUUAUAAAUCAGCUCUUGCCACUUCACAAC | 2.04
UUCAGGCACAACUGACUGGUGCACAGCAUUCCUUACAUAGUUAUCUAGCAAAUACAGAUGUGGUUAAUUUUCAGGAAACAACCAGGCAGUCAUCUUUACCUUGUAGCCCAAUCGGAGAUU | 0.91

Block 4
Target: RNA binding protein fox-1 homolog 2, RRM domain, GST-SBP tag (RBFOX2, Homo sapiens, UniProt O43251-10, residues 100-194)
Method: RNA Bind-n-Seq
Form: RNA
Sample: in vitro
Tested at: 365 nM
Notes: natural RNA segment, single round, ends assumed
Baseline: no-protein control
Reading: higher = stronger binding
Constant ends, left off below: GGGAGUUCUACAGUCCGACGAUC … UGGAAUUCUCGGGUGCCAA
Construct (chain): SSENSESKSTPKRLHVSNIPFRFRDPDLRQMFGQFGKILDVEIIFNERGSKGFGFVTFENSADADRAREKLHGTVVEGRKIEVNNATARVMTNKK
Oligonucleotide | RBNS enrichment (R)
ACAUUAUUAUAAGGGAUUUGUUAUGUCUGUAAAGUGUAACCUAGGAAGGAUCAUCAACCAUCUAAUCAAAAUGGAUCUGGAUUAUUACUCUGUAAAAUUCACAGCAGUAA | 0.346
AGUUACUAGCCCGUAGCUCUUGGGCUGCUCCACAUGGCUCCUUACGGCCGGCAAGAAUGGAUGUAAAAAUAUCUUGCUGCUUACAUCCAAAUUGCUGGUGGAUAUGGGGC | 0.904
AUGAGGGCCCCUCCCACCCAGUAUUUGUGGAGUCCAGGCGCCUGCCCUGUUUCAUGCCAGGGCCACCUCUGGUGAUCUAACUCUAUCCAAAUAGCGUUCUGCUUGGGAUG | 0.236
UUGUUUUCCUCUCACUAUUUAAAGUUGACUAGAAGAGAAGAGUUGUGUGUUGAGGCUAAGUUGGUGGGUUGGGUUGGCUUCUUAACAUCAAGAAACUGAAUGGAGCUCCA | 0.609
GAAUCGACUUCCAAACAGAUUCGAGCGAUGCUUCAUAGAGGCCUGCUCAGAGAGGAGGAUCUAUGCUGACCUCAGAAGAUGUAGAUGUUUACAUAAUUUAAUACAGAUUG | 0.26
AAUUGCUGUUUUUGUUGCUGUAGUACCUUAUGAAUUCUUAAUUCAUUGAGACUUAGUGACCAUCUGGGUCCAUGUUAAUAUCAUAUAAUAGCAAAUUCCUUUCAGAAGUC | 0.587
GUCCUCGGAAUCUCUUUUCUAUUCACAGCCCUUCUAUAGCCUUGCUCUGAUGGUUUUAGCACUUGAUCUGAGAGAAGCUUGCCCAUAAUUUAAUGCUUCUUUUCCUUAAA | 1.34
CAUUGUCACUAAUAACUUCUGUGUUCUCCCAGGCAGUGUUAUAACAGAAGGGCAAUGAAAACAUUGGACAUGACCAUGAGUGCUUCCUUUCCUUAACUCUAGGUUUGUAG | 0.474

For quick reference, copied from above (block 4):
Oligonucleotide | RBNS enrichment (R)
AAUUGCUGUUUUUGUUGCUGUAGUACCUUAUGAAUUCUUAAUUCAUUGAGACUUAGUGACCAUCUGGGUCCAUGUUAAUAUCAUAUAAUAGCAAAUUCCUUUCAGAAGUC | 0.587
AUGAGGGCCCCUCCCACCCAGUAUUUGUGGAGUCCAGGCGCCUGCCCUGUUUCAUGCCAGGGCCACCUCUGGUGAUCUAACUCUAUCCAAAUAGCGUUCUGCUUGGGAUG | 0.236
UUGUUUUCCUCUCACUAUUUAAAGUUGACUAGAAGAGAAGAGUUGUGUGUUGAGGCUAAGUUGGUGGGUUGGGUUGGCUUCUUAACAUCAAGAAACUGAAUGGAGCUCCA | 0.609
GAAUCGACUUCCAAACAGAUUCGAGCGAUGCUUCAUAGAGGCCUGCUCAGAGAGGAGGAUCUAUGCUGACCUCAGAAGAUGUAGAUGUUUACAUAAUUUAAUACAGAUUG | 0.26
GUCCUCGGAAUCUCUUUUCUAUUCACAGCCCUUCUAUAGCCUUGCUCUGAUGGUUUUAGCACUUGAUCUGAGAGAAGCUUGCCCAUAAUUUAAUGCUUCUUUUCCUUAAA | 1.34
